Measured values from different studies.
Every numbered part comes from another study and shows a few of its results, in no order. Changes are numbered by the printed parent chain.

Sample 1 — method: protein-binding microarray; form: hairpin DNA; matrix: in vitro; concentration: not given; baseline: not given; direction: higher = stronger binding
Target: Runt-related transcription factor 1, full length (RUNX1, Homo sapiens, UniProt Q01196-8, residues 1-480)
Setting: whole hairpin DNA, median over replicate spots
| Sequence | median fluorescence [a.u.] |
| --- | --- |
| GAGGCCCAACCGCAACCGCCTCCTGGCGGTTGCGGTTGGGCCTCACACTC | 6540 |
| GAGGCCTGTTGCGGTCGGCCTCCTGGCCGACCGCAACAGGCCTCACACTC (5mC at 28) | 5450 |
| GAGGCCTGTTCTGGTTGGCCTCCTGGCCAACCAGAACAGGCCTCACACTC (5mC at 11) | 1770 |
| GAGGCCCAACCGAAACAGCCTCCTGGCTGTTTCGGTTGGGCCTCACACTC | 1890 |
| GAGGCCTGTTGCGGCGGGCCTCCTGGCCCGCCGCAACAGGCCTCACACTC (5mC at 15) | 2420 |
| CTCAGTTCTGGGGGCTGGACTCCTGTCCAGCCCCCAGAACTGAGACACTC | 1850 |
| GAGGCCCGTCGCGGTTGGCCTCCTGGCCAACCGCGACGGGCCTCACACTC (5mC at 7 37) | 2640 |
| CTCAGTCGTGTGGGCTGGACTCCTGTCCAGCCCACACGACTGAGACACTC (5mC at 7 37) | 1900 |

Sample 2 — method: RNA Bind-n-Seq; form: RNA; matrix: in vitro; concentration: not given; setting: 4-mer, random 30-nt RNA, single round; added: RocA, ADP, phosphate; baseline: input library; direction: higher = stronger binding
Target: ATP-dependent RNA helicase DDX3X, helicase core (DDX3X, Homo sapiens, UniProt O00571, residues 132-607)
Chain of UniProt O00571 (132-607, looked up): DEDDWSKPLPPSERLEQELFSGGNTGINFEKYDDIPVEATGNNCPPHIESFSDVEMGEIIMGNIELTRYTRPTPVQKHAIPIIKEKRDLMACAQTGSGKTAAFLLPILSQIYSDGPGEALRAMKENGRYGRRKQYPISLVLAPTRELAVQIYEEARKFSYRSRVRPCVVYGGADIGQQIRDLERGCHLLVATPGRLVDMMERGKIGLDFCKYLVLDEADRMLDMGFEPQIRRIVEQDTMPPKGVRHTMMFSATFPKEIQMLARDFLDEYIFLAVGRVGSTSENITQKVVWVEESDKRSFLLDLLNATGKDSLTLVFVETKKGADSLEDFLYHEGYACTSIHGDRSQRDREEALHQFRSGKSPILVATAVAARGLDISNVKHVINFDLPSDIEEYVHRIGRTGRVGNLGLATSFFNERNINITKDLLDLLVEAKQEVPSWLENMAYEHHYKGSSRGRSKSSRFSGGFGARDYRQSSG
| Sequence | 4-mer enrichment [fold] |
| --- | --- |
| GUUG | 1.19 |
| GCCG | 0.787 |
| UCUA | 0.737 |
| GGUU | 1.01 |
| CAUA | 0.743 |
| AUCA | 0.723 |
| UUGU | 1.11 |
| CCAG | 0.798 |

Sample 3 — method: EMSA with sequencing; form: double-stranded DNA, one strand shown; matrix: in vitro; concentration: 10 and 20 nM; baseline: negative control set to 0; direction: higher = stronger binding
Target: Hepatocyte nuclear factor 3-alpha (Foxa1, Mus musculus, UniProt P35582, residues 1-468, full length assumed)
Setting: whole designed probe, mean of two concentrations, ends assumed
Target sequence (chain): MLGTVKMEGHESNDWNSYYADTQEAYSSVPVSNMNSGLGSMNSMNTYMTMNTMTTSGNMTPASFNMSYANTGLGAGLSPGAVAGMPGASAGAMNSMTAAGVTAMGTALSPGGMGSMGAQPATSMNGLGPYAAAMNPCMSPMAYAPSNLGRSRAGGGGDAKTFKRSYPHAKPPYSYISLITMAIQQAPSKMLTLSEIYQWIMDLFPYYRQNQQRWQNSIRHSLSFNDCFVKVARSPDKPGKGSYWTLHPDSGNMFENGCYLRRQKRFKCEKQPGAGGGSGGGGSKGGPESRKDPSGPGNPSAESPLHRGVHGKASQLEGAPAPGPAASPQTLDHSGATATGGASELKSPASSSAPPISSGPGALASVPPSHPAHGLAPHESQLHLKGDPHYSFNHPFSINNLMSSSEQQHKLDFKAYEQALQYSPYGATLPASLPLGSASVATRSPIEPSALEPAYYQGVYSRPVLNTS
| Sequence | normalised bound fraction [ratio] |
| --- | --- |
| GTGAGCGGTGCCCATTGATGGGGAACGTGCTCAGCAGCCTTCAACATTAGGATGTGACGCACTTGGAAGCTTGCTCCTTCCTGGTTATCAGCCAAGACAGTGTTGACAGTTGATCGTTCAGTAATCTTTATCTCTGCACATAGCGGTAAATGACACCGCAATAAATAAATGTTAGGGAGAAAATGCAGGCAAAACTTCACAATAAAAGCGAGGCATTTCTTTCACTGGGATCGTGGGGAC | 0.0106 |
| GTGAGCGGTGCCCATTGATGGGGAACTTCATCAGTCTATGCAAGTAAATGTTAACATTCCATGTCCTGTGACAGCTTGGGTGAGAGCTGTAATTTATTGGGTTGGAGGGGGGTTGTGGTAAATTGCATTGTGTAAGCTAAGCCTCATTCTTAACACAGAAAAAAGAATGCTACACAACACCAAAAAGGCTAAAATTTGTTTTGCATTATAAATAACAGATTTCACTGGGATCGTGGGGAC | 0.0875 |
| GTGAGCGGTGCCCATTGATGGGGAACATCTTCCCCCTCTTCCTTGCCCCACCAGCTCACCTTCCCGGGTTATTTGCACAAAGGAAAATAAATAAAGCCGGCATTCGTTAACCCTCTTCTGGCGCAAACTGCTGTTTGCTCTGGATGAATCATGGTCCTTTGGCGAGGCGTGGCTCCGGGAGAGCAAAGCACCGTGTCAGGGCCATGATCCGGGGTGGCCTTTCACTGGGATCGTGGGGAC | 0.362 |
| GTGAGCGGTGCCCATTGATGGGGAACACAACATCAGGTCATTATTTATCCACTTGTCCTTTTTTTTTTTATCATTCCTTTGAACTGCCTGCATTTGCTTATGGTCATATTTCTCAGTCTGTAAACAGCCCGAGTAGCTGTTCTATTTCTCTAAATAGAGTCTTAGGTCATTTTATTATCCAGAATTGTAAGTCATCAGAATGCACCCATCTGTTGTCCTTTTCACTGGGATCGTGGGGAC | 0.133 |
| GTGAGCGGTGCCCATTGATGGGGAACAAATCTAAGAATATTTTGTTTCAGGCTAGAAAGATATCTCTTTACTTGACTTTTTTCAGACCATGTTGGCCATTGTCTAATTATTTAGTACAAAGTAAACAGAAATAGAGCAGAGTAGAGCTCATTCTCCCCAAGTTGAAGCTTATCACACTCCAATGTGTGCCCTCTTAAAGCATAAAGCATGTCTCACTTTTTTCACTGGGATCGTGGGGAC | 0.476 |
| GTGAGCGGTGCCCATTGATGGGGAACATCTTCCCCCTCTTCCTTGCCCCACCAGCTCACCTTCCCGGGTTATTTGCAGATAGGAAAATAACTCGGTAACACGAATATTGACCCTCTTCTGGCGCAAACTGCTGTTTGCTCTGGATGAATCATGGTCCTTTGGCGACGCCAGGCTCCGGGAGAGCAAAGCACCGTGTCAGGGCCATGATCCGGGGTGGCCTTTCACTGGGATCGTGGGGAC | 0.19 |
| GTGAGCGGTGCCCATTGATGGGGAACATAATCTGAGGTGGCGACTGGCCAGATAGCCTGCCCCTACTCACTCTGGCTGTAAAATAAGCCTACAGTATCCACAAGGGGAAATACTAACAGTGTAATCTAGCACATCAAGGTGCAGTCAAAGAAGCCAGGTCCCCACCGATGAGATGAAGAAAATAACCACCTAAGTCTCAGGTCCCTATATCTGCCTAATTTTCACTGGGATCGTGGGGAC | -0.0292 |
| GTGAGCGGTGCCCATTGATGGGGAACGAAAGAAGATCAGTATACATTTGAAGTACAGTAACTTGAGCATATCTTTCCTATTCATCTCACTGAACTTGGATTTCTCTAAATATGGCAATGTAATCTGGCAAATTTTAGATTACTCAACAATCTCTACAGACACTTTAAATTCAAGTACATTTACTCTGTGTAGAGGAAGCACATGTCTAATAAAAGCCTTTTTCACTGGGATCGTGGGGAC | -0.0201 |

Further values, each from its own experiment
Parent: viral docking peptide; YKVKRRLVFGADD; partner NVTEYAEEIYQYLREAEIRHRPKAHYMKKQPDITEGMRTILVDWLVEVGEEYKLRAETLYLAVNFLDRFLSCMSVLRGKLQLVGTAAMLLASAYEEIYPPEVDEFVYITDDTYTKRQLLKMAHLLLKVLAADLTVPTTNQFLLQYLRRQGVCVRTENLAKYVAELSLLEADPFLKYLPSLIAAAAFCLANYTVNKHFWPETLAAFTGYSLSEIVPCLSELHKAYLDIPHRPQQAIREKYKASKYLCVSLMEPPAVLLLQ
| Substitution | target | test | system | setting | scale | quantity | value |
| --- | --- | --- | --- | --- | --- | --- | --- |
| R6G | CCNA1, cyclin fold, Cln2 fusion (human) | yeast growth competition, sequencing | yeast | strong parent motif | baseline: not given, higher = stronger binding | normalised enrichment score | 0.186 |

Some of these lines once more (sample 3):
| Sequence | normalised bound fraction [ratio] |
| --- | --- |
| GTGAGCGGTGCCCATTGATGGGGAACGAAAGAAGATCAGTATACATTTGAAGTACAGTAACTTGAGCATATCTTTCCTATTCATCTCACTGAACTTGGATTTCTCTAAATATGGCAATGTAATCTGGCAAATTTTAGATTACTCAACAATCTCTACAGACACTTTAAATTCAAGTACATTTACTCTGTGTAGAGGAAGCACATGTCTAATAAAAGCCTTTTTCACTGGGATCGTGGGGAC | -0.0201 |
| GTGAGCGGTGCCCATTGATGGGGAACTTCATCAGTCTATGCAAGTAAATGTTAACATTCCATGTCCTGTGACAGCTTGGGTGAGAGCTGTAATTTATTGGGTTGGAGGGGGGTTGTGGTAAATTGCATTGTGTAAGCTAAGCCTCATTCTTAACACAGAAAAAAGAATGCTACACAACACCAAAAAGGCTAAAATTTGTTTTGCATTATAAATAACAGATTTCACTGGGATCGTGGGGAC | 0.0875 |
| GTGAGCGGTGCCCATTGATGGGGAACGTGCTCAGCAGCCTTCAACATTAGGATGTGACGCACTTGGAAGCTTGCTCCTTCCTGGTTATCAGCCAAGACAGTGTTGACAGTTGATCGTTCAGTAATCTTTATCTCTGCACATAGCGGTAAATGACACCGCAATAAATAAATGTTAGGGAGAAAATGCAGGCAAAACTTCACAATAAAAGCGAGGCATTTCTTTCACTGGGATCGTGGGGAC | 0.0106 |
